Experimental data pooled from the literature.
Lines come from different studies, so protocols differ.
T1: G-quadruplex DNA, intramolecular, parallel, heme DNAzyme; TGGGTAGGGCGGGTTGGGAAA
T2: G-quadruplex DNA G6A/G17A (Homo sapiens); AAGGGAGGGCGGCGGGACA
T3: G-quadruplex DNA, G-quadruplex (Homo sapiens); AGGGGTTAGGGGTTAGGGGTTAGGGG
T4: G-quadruplex DNA (Homo sapiens); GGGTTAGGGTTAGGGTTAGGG
T5: G-quadruplex DNA, 5' Cy5; GGGTGGGAAGAGTGGGA
T6: G-quadruplex DNA, quadruplex; GGTTGGTGTGGTTGG
T7: G-quadruplex DNA, G-quadruplex (Homo sapiens); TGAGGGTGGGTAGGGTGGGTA
T8: G-quadruplex DNA, parallel, snap-back loop (Homo sapiens); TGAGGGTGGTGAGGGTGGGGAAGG
T9: G-quadruplex DNA (Homo sapiens); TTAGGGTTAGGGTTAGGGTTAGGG

Structure (SMILES) | target | test | setting | how to read | measurement | value
C=CC1=C(C)C2=Cc3c(C=C)c(C)c4[n]3[Fe][n]3c(c(C)c(CCC(=O)O)c3=CC3=NC(=C4)C(C)=C3CCC(=O)O)=CC1=N2 | T1, G-quadruplex DNA, intramolecular, parallel, heme DNAzyme | UV-vis absorbance titration | KCl 20 mM, together with: Fe(II)-heme 0.5 µM |  | Kd | 1.3 µM
Nc1nc2c(ncn2[C@H]2C[C@H](O)[C@@H](COP(=O)(O)OP(=O)(O)OP(=O)(O)O)O2)c(=O)[nH]1 | T2, G-quadruplex DNA G6A/G17A (Homo sapiens) | microscale thermophoresis | pH 7, KCl 37.5 mM |  | Kd | 511 µM
CCc1c(C)c2cc3nc(cc4nc(cc5c(CC)c(C)c(cc1[nH]2)n5C)C(C)=C4CCC(=O)O)C(CCC(=O)O)=C3C | T3, G-quadruplex DNA, G-quadruplex (Homo sapiens) | fluorescence titration | pH 7.2, 25 °C, Na+ 50 mM |  | binding | binds weakly
CCc1c(C)c2cc3nc(cc4nc(cc5c(CC)c(C)c(cc1[nH]2)n5C)C(C)=C4CCC(=O)O)C(CCC(=O)O)=C3C | T4, G-quadruplex DNA (Homo sapiens) | FRET melting | 1 µM, pH 7.2, Na+ 50 mM | higher = more stabilisation | melting temperature shift | 0.4 °C
Nc1nc2c(ncn2[C@@H]2O[C@@H]3COP(=O)(O)O[C@H]3[C@H]2O)c(=O)[nH]1 | T2, G-quadruplex DNA G6A/G17A (Homo sapiens) | microscale thermophoresis | pH 7, KCl 37.5 mM |  | Kd | 59.3 µM
C=CC1=C(C)c2cc3[n-]c(cc4[n-]c(cc5nc(cc1n2)C(C)=C5C=C)c(C)c4CCC(=O)O)c(CCC(=O)O)c3C.[Cl-].[Fe+3] | T5, G-quadruplex DNA, 5' Cy5 | Cy5 fluorescence quenching titration | pH 8, KCl 200 mM, together with: MgCl2 1 mM |  | Kd | 44 µM
CC(C)C[C@H](NC(=O)[C@H](CCCNC(=N)N)NC(=O)[C@@H](N)Cc1ccc(O)cc1)C(=O)N[C@@H](Cc1ccccc1)C(=O)N[C@@H](CCCNC(=N)N)C(=O)N[C@@H](CCCCN)C(=O)O | T6, G-quadruplex DNA, quadruplex | ITC | pH 7.19, 25 °C, NaCl 150 mM, without K+ |  | Kd | 86.7 µM
C[n+]1ccc(-c2c3nc(c(-c4cc[n+](C)cc4)c4ccc([nH]4)c(-c4cc[n+](C)cc4)c4nc(c(-c5cc[n+](C)cc5)c5ccc2[nH]5)C=C4)C=C3)cc1 | T4, G-quadruplex DNA (Homo sapiens) | FRET melting | 1 µM, pH 7.2, Na+ 50 mM | higher = more stabilisation | melting temperature shift | 30.6 °C
Nc1nc2c(ncn2[C@H]2C[C@H](O)[C@@H](CO)O2)c(=O)[nH]1 | T2, G-quadruplex DNA G6A/G17A (Homo sapiens) | microscale thermophoresis | pH 7, KCl 37.5 mM |  | Kd | 3.1 µM
COc1cc(-c2ccc(N(C)C)cc2)c2cc3[n+](cc2c1OC)CCc1cc2c(cc1-3)OCO2 | T7, G-quadruplex DNA, G-quadruplex (Homo sapiens) | FRET melting | target 0.2 µM, pH 7.0, KCl 10 mM, ligand:DNA ratio 5 | higher = more stabilisation | melting temperature shift | 3.6 °C
C[n+]1cc(NC(=O)c2ccc3ccc4ccc(C(=O)Nc5cc6ccccc6[n+](C)c5)nc4c3n2)cc2ccccc21 | T8, G-quadruplex DNA, parallel, snap-back loop (Homo sapiens) | Cy5 fluorescence quenching titration | 2 nM, pH 7.2, KCl 100 mM |  | Kd | 0.0067 µM
Nc1nc2c(ncn2[C@@H]2O[C@H](COP(=O)(O)O)[C@@H](O)[C@H]2O)c(=O)[nH]1 | T2, G-quadruplex DNA G6A/G17A (Homo sapiens) | microscale thermophoresis | pH 7, KCl 37.5 mM |  | Kd | 90.5 µM
Cc1cc2c3c([n+](C)c4ccc(F)cc4c3c1)-c1cc(F)ccc1N2C | T9, G-quadruplex DNA (Homo sapiens) | fluorescence titration | pH 7.5, room temperature, K+ 100 mM, apparent, no PEG200 |  | Kd | 1.84 µM
